# Assay results from different studies.
# Each numbered part is a random draw from the data of one study; scales do not carry over between parts. Several values in a cell are separate wells, animals, samples, runs or records.
# Sequence of UniProt P42685 (whole entry, looked up): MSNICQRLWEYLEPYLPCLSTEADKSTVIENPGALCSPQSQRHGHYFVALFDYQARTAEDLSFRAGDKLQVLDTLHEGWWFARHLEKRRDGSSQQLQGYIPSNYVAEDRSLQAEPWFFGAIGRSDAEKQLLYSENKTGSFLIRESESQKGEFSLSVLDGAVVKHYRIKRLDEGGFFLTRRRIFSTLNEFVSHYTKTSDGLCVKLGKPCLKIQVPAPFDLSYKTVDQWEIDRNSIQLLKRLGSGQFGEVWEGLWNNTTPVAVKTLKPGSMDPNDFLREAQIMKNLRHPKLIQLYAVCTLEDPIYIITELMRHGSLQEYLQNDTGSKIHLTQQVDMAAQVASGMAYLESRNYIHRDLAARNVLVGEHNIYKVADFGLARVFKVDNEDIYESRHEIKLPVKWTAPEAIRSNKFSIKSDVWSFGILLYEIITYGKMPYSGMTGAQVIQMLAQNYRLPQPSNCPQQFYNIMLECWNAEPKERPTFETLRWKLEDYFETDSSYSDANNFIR
# Sequence of UniProt P28482 (whole entry, looked up): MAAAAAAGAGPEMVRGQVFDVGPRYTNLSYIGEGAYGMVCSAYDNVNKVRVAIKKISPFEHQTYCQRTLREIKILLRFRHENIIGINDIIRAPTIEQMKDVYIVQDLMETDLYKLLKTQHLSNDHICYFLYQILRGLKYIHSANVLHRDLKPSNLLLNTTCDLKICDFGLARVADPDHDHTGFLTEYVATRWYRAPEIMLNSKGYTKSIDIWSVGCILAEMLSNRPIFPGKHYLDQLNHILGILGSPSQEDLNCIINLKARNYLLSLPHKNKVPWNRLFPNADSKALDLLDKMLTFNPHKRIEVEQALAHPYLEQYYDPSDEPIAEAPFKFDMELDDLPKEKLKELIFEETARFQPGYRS
# Sequence of UniProt Q14680 (whole entry, looked up): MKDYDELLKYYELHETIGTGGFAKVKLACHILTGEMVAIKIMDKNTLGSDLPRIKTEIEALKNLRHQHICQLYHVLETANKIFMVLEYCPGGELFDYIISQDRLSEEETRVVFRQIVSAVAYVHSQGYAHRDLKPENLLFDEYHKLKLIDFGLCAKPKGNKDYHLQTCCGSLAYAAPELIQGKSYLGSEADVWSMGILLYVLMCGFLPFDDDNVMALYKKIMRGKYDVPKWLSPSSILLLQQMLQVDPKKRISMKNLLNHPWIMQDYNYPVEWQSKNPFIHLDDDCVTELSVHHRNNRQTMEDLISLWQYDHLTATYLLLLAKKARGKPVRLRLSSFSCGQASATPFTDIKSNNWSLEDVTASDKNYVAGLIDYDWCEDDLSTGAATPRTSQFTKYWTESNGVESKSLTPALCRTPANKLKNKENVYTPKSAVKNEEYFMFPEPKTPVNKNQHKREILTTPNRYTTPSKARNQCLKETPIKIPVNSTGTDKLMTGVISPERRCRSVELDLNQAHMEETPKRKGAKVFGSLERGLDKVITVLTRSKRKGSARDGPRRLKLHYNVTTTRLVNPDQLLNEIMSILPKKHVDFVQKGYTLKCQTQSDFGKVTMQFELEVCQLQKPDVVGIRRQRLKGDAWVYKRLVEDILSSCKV
# Sequence of UniProt P31152 (whole entry, looked up): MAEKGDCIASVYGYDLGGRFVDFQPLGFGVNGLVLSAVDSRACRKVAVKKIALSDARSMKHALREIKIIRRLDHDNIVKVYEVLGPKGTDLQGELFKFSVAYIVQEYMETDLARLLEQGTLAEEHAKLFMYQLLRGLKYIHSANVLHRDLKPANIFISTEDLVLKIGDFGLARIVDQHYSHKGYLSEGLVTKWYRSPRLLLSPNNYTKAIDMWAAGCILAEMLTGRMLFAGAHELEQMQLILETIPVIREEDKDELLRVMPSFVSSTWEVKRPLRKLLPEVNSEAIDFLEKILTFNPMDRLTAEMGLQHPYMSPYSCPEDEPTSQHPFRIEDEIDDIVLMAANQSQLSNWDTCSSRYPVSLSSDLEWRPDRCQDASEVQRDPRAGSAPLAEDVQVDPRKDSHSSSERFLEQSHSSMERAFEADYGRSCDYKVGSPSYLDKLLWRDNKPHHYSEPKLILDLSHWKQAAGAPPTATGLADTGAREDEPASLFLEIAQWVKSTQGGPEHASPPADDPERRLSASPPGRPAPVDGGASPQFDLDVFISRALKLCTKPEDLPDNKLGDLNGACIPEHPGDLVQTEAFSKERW
# Sequence of UniProt P57058 (whole entry, looked up): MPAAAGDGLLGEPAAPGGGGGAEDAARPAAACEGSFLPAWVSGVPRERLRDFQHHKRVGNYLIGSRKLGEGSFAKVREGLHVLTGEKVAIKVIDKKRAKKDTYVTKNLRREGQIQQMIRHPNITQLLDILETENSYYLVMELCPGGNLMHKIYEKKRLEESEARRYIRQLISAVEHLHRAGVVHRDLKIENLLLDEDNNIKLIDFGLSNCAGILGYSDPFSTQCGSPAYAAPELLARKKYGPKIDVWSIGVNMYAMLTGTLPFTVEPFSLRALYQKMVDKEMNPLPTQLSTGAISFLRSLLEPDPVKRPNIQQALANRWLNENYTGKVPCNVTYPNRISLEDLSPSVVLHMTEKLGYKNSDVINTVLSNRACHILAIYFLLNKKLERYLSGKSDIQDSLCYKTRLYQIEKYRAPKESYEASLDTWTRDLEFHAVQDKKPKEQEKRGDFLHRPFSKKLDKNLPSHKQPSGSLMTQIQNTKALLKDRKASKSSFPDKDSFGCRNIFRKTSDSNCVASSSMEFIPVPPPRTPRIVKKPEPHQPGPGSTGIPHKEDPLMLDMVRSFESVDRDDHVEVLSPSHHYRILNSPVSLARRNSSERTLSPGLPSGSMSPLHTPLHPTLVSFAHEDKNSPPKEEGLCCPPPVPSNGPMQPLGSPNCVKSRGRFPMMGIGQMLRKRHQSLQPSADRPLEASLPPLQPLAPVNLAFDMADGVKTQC
# Sequence of UniProt P53779 (whole entry, looked up): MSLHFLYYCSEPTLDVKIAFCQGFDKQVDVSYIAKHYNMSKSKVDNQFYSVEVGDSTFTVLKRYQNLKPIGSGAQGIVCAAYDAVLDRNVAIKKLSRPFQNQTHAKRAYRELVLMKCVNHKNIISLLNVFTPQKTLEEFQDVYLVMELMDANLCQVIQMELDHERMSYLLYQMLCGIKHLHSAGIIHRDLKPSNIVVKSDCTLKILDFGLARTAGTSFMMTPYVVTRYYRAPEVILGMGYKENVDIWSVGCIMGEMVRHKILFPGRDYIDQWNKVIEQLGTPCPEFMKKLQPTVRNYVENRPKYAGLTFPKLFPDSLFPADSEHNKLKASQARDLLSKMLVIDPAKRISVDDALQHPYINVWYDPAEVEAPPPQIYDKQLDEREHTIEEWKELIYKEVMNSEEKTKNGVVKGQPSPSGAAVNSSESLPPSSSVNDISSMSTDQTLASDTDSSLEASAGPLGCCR

# Series 1 — concentration: 1 µM
# Structure (SMILES): CN1CCN(C(=O)c2ccc(NC(=O)Nc3ccc(N(C)c4ccnc(Nc5ccc(CS(C)(=O)=O)cc5)n4)cc3)cc2)CC1
target,test,conditions,scale,remaining binding [%]
"Serine/threonine-protein kinase TNNI3K (TNNI3K, Homo sapiens, UniProt Q59H18)",competitive binding panel,,reference: vehicle,92
"Serine/threonine-protein kinase Sgk1 (SGK1, Homo sapiens, UniProt O00141)",competitive binding,SGK,,57
"Mitotic checkpoint serine/threonine-protein kinase BUB1 (BUB1, Homo sapiens, UniProt O43683)",competitive binding panel,,reference: vehicle,46
"Hormonally up-regulated neu tumor-associated kinase (HUNK, Homo sapiens, UniProt P57058)",competitive binding panel,,reference: vehicle,35
"Ephrin type-A receptor 5 (EPHA5, Homo sapiens, UniProt P54756)",competitive binding panel,,reference: vehicle,99
"Mitogen-activated protein kinase 10 (MAPK10, Homo sapiens, UniProt P53779)",competitive binding,JNK3,,8.6
"Dual specificity mitogen-activated protein kinase kinase 5 (MAP2K5, Homo sapiens, UniProt Q13163)","competitive binding panel, measured: MEK5",,reference: vehicle,0.1
"Tyrosine-protein kinase FRK (FRK, Homo sapiens, UniProt P42685)",competitive binding panel,,reference: vehicle,80
"Mitogen-activated protein kinase 4 (MAPK4, Homo sapiens, UniProt P31152)","competitive binding panel, measured: ERK4",,reference: vehicle,100

# Series 2 — cell line: A-375; concentration: 100 µM; time: 18 h
Compound,viability
CCOc1cc([C@@H](CS(C)(=O)=O)N2C(=O)c3cccc(NC(C)=O)c3C2=O)ccc1OC,107%
CCc1nn(CCCN2CCN(c3cccc(Cl)c3)CC2)c(=O)n1CCOc1ccccc1,16.9%
C#C[C@]1(O)CC[C@H]2[C@@H]3CCC4=CC(=O)CC[C@@H]4[C@H]3CC[C@@]21C,91.2%
OC[C@@H](O)[C@@H](O)[C@H](O)[C@@H](O)CO,106%
COc1cc(OC)c(C(=O)CCCN2CCCC2)c(OC)c1,104%
Cn1c(=O)cc(N2CCC[C@@H](N)C2)n(Cc2cc(F)ccc2C#N)c1=O,84.9% and 84.8%
CC(=O)c1ccc(O)c(C(=O)O)c1,108%
O=C(NCCO[N+](=O)[O-])c1cccnc1,93.9%
Nc1cc(-c2ccncc2)c[nH]c1=O,97.1%
CN1CCCCC1CCN1c2ccccc2Sc2ccc([S+](C)[O-])cc21 (centres unmarked),14.8%
COc1cc(C[C@H]2C(=O)OC[C@@H]2Cc2ccc(OC)c(OC)c2)ccc1O,104%
OC[C@@H](O)[C@H](O)[C@@H](O)CO,96.5%
C[C@@H]1O[C@@H]1P(=O)(O)O,94.9%
CCC(CC)[C@H](NC(C)=O)[C@@H]1[C@H](O)[C@@H](C(=O)O)C[C@H]1NC(=N)N,98.9%
CC1(C)O[C@@H]2C[C@H]3[C@@H]4CCC5=CC(=O)CC[C@]5(C)[C@@]4(F)[C@@H](O)C[C@]3(C)[C@]2(C(=O)CCl)O1,85.2%
COc1cc2ccc(=O)oc2cc1O,105%

# Series 3 — effect on: enzyme activity; mode: inhibitor; concentration: 0.5 µM; reference: control
# Target: Serine/threonine-protein kinase 4 (STK4, Homo sapiens, UniProt Q13043)
# Sequence of UniProt Q13043 (whole entry, looked up): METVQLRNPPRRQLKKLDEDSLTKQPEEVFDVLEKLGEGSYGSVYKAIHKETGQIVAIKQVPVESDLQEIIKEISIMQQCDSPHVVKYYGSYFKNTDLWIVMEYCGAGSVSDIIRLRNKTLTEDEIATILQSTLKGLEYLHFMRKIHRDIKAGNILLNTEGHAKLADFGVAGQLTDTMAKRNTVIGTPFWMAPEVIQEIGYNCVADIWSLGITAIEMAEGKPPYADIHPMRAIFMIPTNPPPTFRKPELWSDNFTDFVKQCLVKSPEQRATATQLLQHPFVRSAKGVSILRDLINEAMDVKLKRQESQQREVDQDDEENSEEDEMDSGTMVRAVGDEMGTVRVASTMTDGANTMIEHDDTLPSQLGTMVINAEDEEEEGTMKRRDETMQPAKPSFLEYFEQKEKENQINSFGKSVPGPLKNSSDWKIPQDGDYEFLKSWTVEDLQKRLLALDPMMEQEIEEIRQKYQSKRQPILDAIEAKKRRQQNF
SMILES,remaining activity
NC(=O)c1ccc(-c2nc(-c3ccc4c(c3)OCCO4)c(-c3ccccn3)[nH]2)cc1,104%
N#C/C(=C(/N)SC1C=CC=CC1)c1cccc(C(O)c2ccncc2)c1 (centres unmarked),87.2%
CCCCc1c(-c2ccc(O)cc2)[nH]c2nccnc12,78.3%
O=C1NC(=O)/C(=C/c2ccc3c(c2)OC(F)(F)O3)S1,93.3%
COc1cc2c(Nc3ccc(Br)cc3F)ncnc2cc1OCC1CCN(C)CC1,103%
c1cc(-c2cnn3cc(-c4ccc(OCCN5CCCCC5)cc4)cnc23)ccn1,86.8%
Nc1nc(Nc2ccc(S(N)(=O)=O)cc2)nn1C(=S)Nc1c(F)cccc1F,2.16%
Clc1ccc(Nc2nnc(Cc3ccncc3)c3ccccc23)cc1,105%
FC(F)(F)c1ccc(/C=C/c2nc(COc3ccc(CCCCn4ccnn4)cc3)co2)cc1,97.5%
CC(C)(C)c1nc2c3cc[nH]c(=O)c3c3cc(F)ccc3c2[nH]1,6.84%
CCN(CC)CCCCN1c2ccccc2Oc2ccc(Cl)cc21,98.9%
O=C(O)/C=C/c1cc(Br)c(Br)c(Br)c1Br,102%
O=c1c(-c2ccc(F)cc2)c(-c2ccncc2)[nH]n1-c1ccc(Cl)cc1,90%
CC(C)N(CCC(=O)c1ccc2ccccc2c1)Cc1ccccc1,92.5%
CC(C)n1cnc2c(Nc3cccc(Cl)c3)nc(NCCO)nc21,93.1%

# Series 4 — technique: competition with immobilised ligand; concentration: 0.1 µM
# SMILES: CS(=O)(=O)N1CCCC(NC(=O)[C@H](CCC2CCCCC2)NC(=O)c2ccc(CNC(=O)c3cnc4ccccn34)cc2)C1 (some centres unmarked)
target,test,remaining binding
"Wee1-like protein kinase (WEE1, Homo sapiens, UniProt P30291)",cell-free assay,100%
"Calcium/calmodulin-dependent protein kinase kinase 2 (CAMKK2, Homo sapiens, UniProt Q96RR4)",cell-free assay,88%
"Serine/threonine-protein kinase ULK2 (ULK2, Homo sapiens, UniProt Q8IYT8)",cell-free assay,100%
"Mitogen-activated protein kinase kinase kinase 11 (MAP3K11, Homo sapiens, UniProt Q16584)",cell-free assay,100%
"Serine/threonine-protein kinase 38 (STK38, Homo sapiens, UniProt Q15208)",cell-free assay,81%
"Serine/threonine-protein kinase ICK (CILK1, Homo sapiens, UniProt Q9UPZ9)",cell-free assay,100%
"Casein kinase I isoform epsilon (CSNK1E, Homo sapiens, UniProt P49674)",cell-free assay,93%
"Calcium/calmodulin-dependent protein kinase type 1G (CAMK1G, Homo sapiens, UniProt Q96NX5)",cell-free assay,84%
"Tyrosine-protein kinase ABL1, phosphorylated (ABL1, Homo sapiens, UniProt P00519, E255K)",binding,74%
"Receptor-type tyrosine-protein kinase FLT3 (FLT3, Homo sapiens, UniProt P36888, F691L/ITD)",cell-free assay,100%
"Maternal embryonic leucine zipper kinase (MELK, Homo sapiens, UniProt Q14680)",cell-free assay,100%
"Calcium/calmodulin-dependent protein kinase type II subunit delta (CAMK2D, Homo sapiens, UniProt Q13557)",cell-free assay,84%
"Beta-adrenergic receptor kinase 1 (GRK2, Homo sapiens, UniProt P25098)",cell-free assay,88%
"Receptor tyrosine-protein kinase erbB-3 (ERBB3, Homo sapiens, UniProt P21860)",cell-free assay,83%
"Bone morphogenetic protein receptor type-1A (BMPR1A, Homo sapiens, UniProt P36894)",cell-free assay,94%
"Myosin-IIIa (MYO3A, Homo sapiens, UniProt Q8NEV4)",cell-free assay,99%
"Calcium/calmodulin-dependent protein kinase kinase 1 (CAMKK1, Homo sapiens, UniProt Q8N5S9)",cell-free assay,84%
"Dual specificity mitogen-activated protein kinase kinase 3 (MAP2K3, Homo sapiens, UniProt P46734)",cell-free assay,100%
"Mitogen-activated protein kinase kinase kinase kinase 2 (MAP4K2, Homo sapiens, UniProt Q12851)",cell-free assay,92%
"Peripheral plasma membrane protein CASK (CASK, Homo sapiens, UniProt O14936)",cell-free assay,100%
"Homeodomain-interacting protein kinase 3 (HIPK3, Homo sapiens, UniProt Q9H422)",cell-free assay,100%
"Mitogen-activated protein kinase 1 (MAPK1, Homo sapiens, UniProt P28482)",cell-free assay,100%
